{"data": "Experimental data gathered from unrelated publications", "note": "Each line is one published result; not all experiments were run side by side. Values joined by “and” are separate records of one study, mostly repeats; a detail may differ. ± marks the error that the study gave.", "chain of UniProt Q12809 (whole entry, looked up)": "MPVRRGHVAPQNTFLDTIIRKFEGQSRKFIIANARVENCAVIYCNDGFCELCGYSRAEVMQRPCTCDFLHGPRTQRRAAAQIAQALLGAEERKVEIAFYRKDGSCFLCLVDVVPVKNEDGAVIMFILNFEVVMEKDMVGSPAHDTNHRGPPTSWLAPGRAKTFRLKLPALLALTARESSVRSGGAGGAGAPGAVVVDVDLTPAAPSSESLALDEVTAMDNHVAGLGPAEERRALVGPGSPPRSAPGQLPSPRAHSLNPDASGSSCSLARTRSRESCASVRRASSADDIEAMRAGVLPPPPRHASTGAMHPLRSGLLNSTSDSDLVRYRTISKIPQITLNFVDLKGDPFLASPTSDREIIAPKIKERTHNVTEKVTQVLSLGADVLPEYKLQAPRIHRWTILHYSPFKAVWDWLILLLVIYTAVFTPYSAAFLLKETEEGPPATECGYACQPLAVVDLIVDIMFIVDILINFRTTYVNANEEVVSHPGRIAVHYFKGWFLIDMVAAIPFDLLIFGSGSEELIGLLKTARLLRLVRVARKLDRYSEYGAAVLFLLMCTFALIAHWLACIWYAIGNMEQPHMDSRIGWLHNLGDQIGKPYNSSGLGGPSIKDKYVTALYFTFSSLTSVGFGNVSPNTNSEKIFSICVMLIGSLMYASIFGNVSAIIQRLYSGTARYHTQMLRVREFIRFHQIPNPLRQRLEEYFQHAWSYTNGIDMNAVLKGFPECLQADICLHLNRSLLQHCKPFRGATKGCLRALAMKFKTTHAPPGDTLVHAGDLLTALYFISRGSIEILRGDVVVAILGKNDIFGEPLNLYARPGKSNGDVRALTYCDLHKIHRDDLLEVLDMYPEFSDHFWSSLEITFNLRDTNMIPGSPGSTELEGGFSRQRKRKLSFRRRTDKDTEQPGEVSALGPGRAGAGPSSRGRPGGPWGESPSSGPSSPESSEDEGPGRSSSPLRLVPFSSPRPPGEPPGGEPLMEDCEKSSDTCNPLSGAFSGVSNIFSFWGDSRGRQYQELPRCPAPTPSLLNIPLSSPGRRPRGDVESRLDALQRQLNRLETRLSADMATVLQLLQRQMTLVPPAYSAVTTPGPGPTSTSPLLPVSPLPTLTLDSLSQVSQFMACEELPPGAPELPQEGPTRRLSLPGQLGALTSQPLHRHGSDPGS", "chain of UniProt Q9Y6L6 (whole entry, looked up)": "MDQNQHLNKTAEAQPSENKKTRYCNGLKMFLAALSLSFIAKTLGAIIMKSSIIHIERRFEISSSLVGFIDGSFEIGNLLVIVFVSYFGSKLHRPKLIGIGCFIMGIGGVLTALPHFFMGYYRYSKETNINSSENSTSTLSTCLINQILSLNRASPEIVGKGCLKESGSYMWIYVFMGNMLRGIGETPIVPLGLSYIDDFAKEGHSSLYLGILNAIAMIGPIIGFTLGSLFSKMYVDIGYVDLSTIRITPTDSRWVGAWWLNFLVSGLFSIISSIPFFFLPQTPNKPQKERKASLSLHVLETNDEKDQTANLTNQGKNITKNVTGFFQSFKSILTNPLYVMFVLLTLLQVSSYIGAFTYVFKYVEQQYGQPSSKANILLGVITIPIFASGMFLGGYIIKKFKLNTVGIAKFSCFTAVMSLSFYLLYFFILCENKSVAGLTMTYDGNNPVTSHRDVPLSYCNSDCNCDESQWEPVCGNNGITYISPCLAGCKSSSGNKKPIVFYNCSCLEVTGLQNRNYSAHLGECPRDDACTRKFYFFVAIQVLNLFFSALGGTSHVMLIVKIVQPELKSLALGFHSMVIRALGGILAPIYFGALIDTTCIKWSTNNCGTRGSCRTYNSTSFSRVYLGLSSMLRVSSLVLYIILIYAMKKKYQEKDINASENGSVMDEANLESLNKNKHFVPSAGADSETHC", "chain of UniProt Q8TCC7 (whole entry, looked up)": "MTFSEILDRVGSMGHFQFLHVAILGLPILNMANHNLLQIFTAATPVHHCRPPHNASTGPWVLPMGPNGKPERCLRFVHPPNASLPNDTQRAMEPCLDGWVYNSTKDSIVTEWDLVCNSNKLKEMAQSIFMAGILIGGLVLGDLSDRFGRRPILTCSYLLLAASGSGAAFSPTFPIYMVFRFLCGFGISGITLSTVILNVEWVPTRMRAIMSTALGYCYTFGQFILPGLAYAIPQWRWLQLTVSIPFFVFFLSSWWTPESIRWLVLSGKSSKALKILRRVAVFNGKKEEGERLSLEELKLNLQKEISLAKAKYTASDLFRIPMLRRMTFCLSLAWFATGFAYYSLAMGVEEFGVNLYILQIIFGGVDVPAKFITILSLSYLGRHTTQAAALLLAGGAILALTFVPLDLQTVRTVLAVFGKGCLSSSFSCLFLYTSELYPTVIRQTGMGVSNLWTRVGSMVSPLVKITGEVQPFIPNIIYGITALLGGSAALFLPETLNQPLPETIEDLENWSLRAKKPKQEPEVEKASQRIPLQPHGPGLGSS"}
{"Structure (SMILES)": "Cc1cc(-c2ccc3ccccc3c2)nnc1NCCN1CCN(C)CC1", "target or system": "SLCO1B1 (Homo sapiens, UniProt Q9Y6L6)", "assay": "transporter uptake, inhibitor", "conditions": "10 µM", "endpoint": "inhibition", "result": "3%"}
{"Structure (SMILES)": "CC(=O)NCCCC[C@@H]1NC(=O)[C@H](Cc2c[nH]c3c(C)cccc23)NC(=O)[C@H]([C@@H](C)O)NC(=O)[C@H](CC(N)=O)NC(=O)[C@@H](NC(C)=O)C(C)(C)SSC(C)(C)[C@@H](C(=O)N[C@@H](Cc2ccc(OCCN)cc2)C(=O)N[C@@H](Cc2ccc3ccccc3c2)C(=O)NC2(C(=O)N[C@@H](CCC(=O)O)C(=O)N[C@@H](CC(N)=O)C(=O)N[C@@H](Cc3cccnc3)C(=O)N(C)CC(N)=O)CCOCC2)NC1=O", "target or system": "SLC22A8 (Homo sapiens, UniProt Q8TCC7)", "assay": "substrate", "system": "MDCK-II cells, transfected", "conditions": "5 µM, 30 min, added: probenecid 300 µM", "endpoint": "uptake rate", "result": "0.532 ± 0.044 pmol/mg/min"}
{"Structure (SMILES)": "CCN(CC)CCOc1ccc(-c2nnn(Cc3ccc(OC)cc3)c2N)cc1", "target or system": "Cytochrome P450 2B6 (CYP2B6, Homo sapiens, UniProt P20813)", "assay": "CYP phenotyping", "conditions": "concentration not given", "endpoint": "inhibition", "result": "-11.9%"}
{"Structure (SMILES)": "Cc1ccccc1S(=O)(=O)N1CCCC2(C1)Nc1cccnc1N=C2NC1CCCC1 (stereo not shown)", "target or system": "HEK293", "conditions": "72 (unit not given)", "endpoint": "CC50", "result": "38.6 µM"}
{"Structure (SMILES)": "COc1ccc2c3c1O[C@H]1[C@H](O)C=C[C@H]4[C@@H](C2)N(C)CC[C@@]341", "conditions": "1 h", "endpoint": "logP", "result": 1.38}
{"Structure (SMILES)": "CNC(=O)CC[C@H](Cc1ccccc1)NC(=O)[C@@H](Cc1ccc(Cl)cc1Cl)NC(=O)[C@H](N)Cc1ccccc1[N+](=O)[O-]", "target or system": "Huh-7-ACE2", "assay": "CellTiter-Glo", "conditions": "0.00153 µM, 48 h, unit not given", "how to read": "reference: DMSO", "endpoint": "viability", "result": "0.998 and 0.951 and 0.824"}
{"Structure (SMILES)": "CCc1nnc(NS(=O)(=O)c2ccc(NC(=O)c3cccc4ccccc34)cc2)s1", "target or system": "Cytochrome P450 2D6 (CYP2D6, Homo sapiens, UniProt P10635)", "conditions": "10 µM", "endpoint": "inhibition", "result": "< 10%"}
{"Structure (SMILES)": "CC1(F)CN(C(=O)Cn2c(=O)c(C(=O)NCc3ccc(Cl)cc3)cc3nc(N4CCN(CCN)C4=O)cnc32)C1", "target or system": "human cytomegalovirus", "assay": "plaque reduction", "system": "AD169 US3-6-EGFP", "how to read": "reference: CC50 over EC50", "endpoint": "selectivity index", "result": "> 189"}
{"Structure (SMILES)": "O=C1NC2(CC2)COc2ncc(F)cc2[C@H]2COCCN2c2ccn3ncc1c3n2", "system": "Sprague-Dawley rats, female, blood", "conditions": "oral, 20 mg/kg/day, end of treatment, 4-week subacute toxicity", "endpoint": "APTT", "result": "12.7 ± 1.3 s"}
{"Structure (SMILES)": "Cc1nc2cccc(OCC(C)(C)C(=O)NC(C)C)c2c(N)c1C(=O)[O-].[Na+]", "target or system": "Salmonella typhimurium", "system": "TA100", "conditions": "5.0 mg per plate, without S9, plate incorporation", "endpoint": "revertant colonies per plate", "result": "147 ± 7"}
{"Structure (SMILES)": "CC1(C)CC(=O)C2=C(C1)Oc1ccccc1C2C1C(=O)NC(=O)NC1=O (stereo not shown)", "target or system": "3T3-L1 mature adipocytes", "assay": "MTT", "conditions": "IC20, 6 days, lipolysis conditions", "how to read": "reference: untreated", "endpoint": "viability", "result": "81.2%"}
{"Structure (SMILES)": "CNC(=O)C[C@H](Cc1ccncc1)NC(=O)[C@@H](Cc1cccc(Br)c1)NC(=O)[C@@H](N)Cc1ccsc1", "target or system": "Huh-7-ACE2", "assay": "CellTiter-Glo", "conditions": "0.0977 µM, 48 h, unit not given", "how to read": "reference: DMSO", "endpoint": "viability", "result": "0.999 and 1.1 and 0.955"}
{"Structure (SMILES)": "COc1cc2c(cc1NC(=O)c1cncn1C)C[C@H]1[C@H]3CCCC[C@@]23CCN1C", "system": "Caco-2", "conditions": "10 µM, pH 6.5", "endpoint": "Papp A→B", "result": "9.71 ×10⁻⁶ cm/s"}
{"Structure (SMILES)": "[2H]c1nc([2H])c(-c2nc([2H])n3c2C([2H])([2H])N=C(c2ccccn2)c2cc(C#C)ccc2-3)o1", "system": "Sprague Dawley rat, plasma", "conditions": "oral, 2 mg/kg, 0 to 24 h, cassette dosing", "endpoint": "AUC(0-t)", "result": "1370 ng·h/mL"}
{"Structure (SMILES)": "COc1cc2nc(NC3CCN(Cc4ccc(C(N)=O)cc4)CC3)nc(Oc3c(C)cc(C#N)cc3C)c2cc1OC", "target or system": "HIV-1", "system": "MT4, IIIB wild type", "how to read": "reference: CC50 over EC50", "endpoint": "selectivity index", "result": 3470}
{"Structure (SMILES)": "COc1ccc2c(c1)[C@]13CCCC[C@@H]1[C@H](C2)N(C)CC3", "target or system": "KCNH2 (Homo sapiens, UniProt Q12809)", "assay": "ligand displacement, radioligand", "conditions": "1 µM", "endpoint": "inhibition", "result": "13.3%"}
{"Structure (SMILES)": "COc1ccc(-n2cc(C(=O)N3C[C@]4(OC(=O)c5ccccc5NC(C)=O)CC[C@H](OC)[C@@]56[C@@H]4C[C@@H]([C@@H]35)[C@@]3(O)C[C@H](OC)[C@H]4C[C@@H]6[C@]3(O)[C@H]4OC)nn2)cc1", "system": "rat Sprague-Dawley, plasma", "conditions": "intravenous, 2 mg/kg", "endpoint": "Vss", "result": "14.4 L/kg"}
{"Structure (SMILES)": "O=C(O)CCCOc1ccc(O)cc1-c1cc(-c2ccccc2C(F)(F)F)n(-c2ccccc2)n1", "target or system": "Salmonella typhimurium", "assay": "Ames test", "system": "TA100", "conditions": "concentration not given, without S9 metabolic activation", "endpoint": "growth-inhibiting concentration", "result": "≥ 2500 µg/plate"}
{"Structure (SMILES)": "O=C(NS(=O)(=O)c1cccs1)c1cc2ccccc2n1Cc1ccc(Br)c2ccccc12", "system": "KM mouse, chronic hyperuricaemia model", "conditions": "dose not given, day 1", "endpoint": "body weight", "result": "24.4 g"}
{"note": "Some of these lines once more:"}
{"Structure (SMILES)": "O=C(O)CCCOc1ccc(O)cc1-c1cc(-c2ccccc2C(F)(F)F)n(-c2ccccc2)n1", "target or system": "Salmonella typhimurium", "assay": "Ames test", "system": "TA100", "conditions": "concentration not given, without S9 metabolic activation", "endpoint": "growth-inhibiting concentration", "result": "≥ 2500 µg/plate"}
